Experimental data collected from several papers.
Target: Serine/threonine-protein kinase Sgk1 (SGK1, Homo sapiens, UniProt O00141)
Residues used in one study (O00141 1-431): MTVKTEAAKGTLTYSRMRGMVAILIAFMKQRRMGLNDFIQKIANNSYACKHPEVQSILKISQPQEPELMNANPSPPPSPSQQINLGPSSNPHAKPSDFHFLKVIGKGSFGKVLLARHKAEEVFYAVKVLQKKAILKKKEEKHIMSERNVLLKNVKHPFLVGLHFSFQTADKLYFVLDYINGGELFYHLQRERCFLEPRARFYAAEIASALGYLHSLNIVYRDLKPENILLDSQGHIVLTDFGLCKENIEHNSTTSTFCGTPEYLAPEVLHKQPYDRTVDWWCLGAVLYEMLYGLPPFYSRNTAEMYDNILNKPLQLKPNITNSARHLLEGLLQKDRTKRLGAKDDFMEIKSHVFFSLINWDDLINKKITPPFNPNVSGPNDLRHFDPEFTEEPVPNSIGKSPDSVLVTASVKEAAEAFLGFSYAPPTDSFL

Structure (SMILES) = COc1cc(F)ccc1-c1ncnc(Nc2cccc(C[S@](C)(=N)=O)c2)n1; assay = kinase activity; setting = 10 µM, with: 10 µM ATP; measurement = remaining activity; value = 91%
Structure (SMILES) = Cc1cc(Nc2cc(N3CCN(C)CC3)nc(Sc3ccc(NC(=O)C4CC4)cc3)n2)[nH]n1; assay = kinase activity, KinaseProfiler; setting = 0.03 µM, species human; how to read = relative to: control; measurement = remaining activity; value = 104%
Structure (SMILES) = CNc1ncc2c(/C=C/C(=O)N3CCC(OC)CC3)nn(Cc3cccc(C(F)(F)F)c3)c2n1; assay = kinase activity, inhibitor; setting = 1 µM; how to read = relative to: untreated control; measurement = remaining activity; value = 92%
Structure (SMILES) = COc1cc(-c2cncc3c2CN(C)Cc2cc(N4CCNCC4)ccc2-3)cc(OC)c1OC; assay = kinase activity; setting = 1 µM, human enzyme, with: ATP 10 µM; how to read = relative to: DMSO control; measurement = remaining activity; value = 118%
Structure (SMILES) = CC(C)[C@H](NC(=O)c1cc(-c2cnn3cc(-c4ccc(OCCN5CCCCC5)cc4)cnc23)cs1)C(F)(F)F; assay = radiometric kinase; setting = 15 nM; how to read = relative to: SGK1 over ULK1; measurement = relative inhibition; value = 0.0455
Structure (SMILES) = c1cnc2ccc(Nc3nc(NC4CC4)c4nc[nH]c4n3)cc2c1; assay = kinase activity, inhibitor, SelectScreen kinase profiling; setting = 1 µM; how to read = relative to: control; measurement = remaining activity; value = 95%
Structure (SMILES) = O=C1NC(=O)/C(=C/c2ccc(-c3ccc(F)cc3O)o2)S1; assay = enzyme activity; setting = 10 µM; measurement = remaining activity; value = 59%
Structure (SMILES) = O=C(NC1CCC1)c1ccc2nc(-c3cccc(NS(=O)(=O)NCCN4CCCCC4)c3)cn2c1; assay = enzyme activity; setting = 10 µM; measurement = remaining activity; value = 99%

Repeated from above:
Structure (SMILES) = CNc1ncc2c(/C=C/C(=O)N3CCC(OC)CC3)nn(Cc3cccc(C(F)(F)F)c3)c2n1; assay = kinase activity, inhibitor; setting = 1 µM; how to read = relative to: untreated control; measurement = remaining activity; value = 92%
